Earlier results, collected from citations in different studies.
± gives the spread as reported. Converted amounts (≈) assume the structure as drawn.
Chain of UniProt P08684 (whole entry, looked up): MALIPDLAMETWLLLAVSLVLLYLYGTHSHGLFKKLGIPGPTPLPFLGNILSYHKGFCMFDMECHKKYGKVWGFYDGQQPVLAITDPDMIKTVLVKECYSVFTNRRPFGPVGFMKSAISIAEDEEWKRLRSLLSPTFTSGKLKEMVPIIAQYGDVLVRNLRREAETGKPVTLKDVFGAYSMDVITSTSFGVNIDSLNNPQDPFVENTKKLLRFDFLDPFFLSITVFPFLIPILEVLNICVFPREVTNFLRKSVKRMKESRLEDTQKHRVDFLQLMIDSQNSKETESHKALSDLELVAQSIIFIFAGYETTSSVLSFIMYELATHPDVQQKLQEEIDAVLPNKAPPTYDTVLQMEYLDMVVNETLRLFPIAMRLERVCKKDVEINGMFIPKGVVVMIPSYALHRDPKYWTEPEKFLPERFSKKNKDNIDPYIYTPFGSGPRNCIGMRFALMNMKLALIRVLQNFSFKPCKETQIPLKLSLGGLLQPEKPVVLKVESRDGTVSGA
Chain of UniProt Q8WTS6 (whole entry, looked up): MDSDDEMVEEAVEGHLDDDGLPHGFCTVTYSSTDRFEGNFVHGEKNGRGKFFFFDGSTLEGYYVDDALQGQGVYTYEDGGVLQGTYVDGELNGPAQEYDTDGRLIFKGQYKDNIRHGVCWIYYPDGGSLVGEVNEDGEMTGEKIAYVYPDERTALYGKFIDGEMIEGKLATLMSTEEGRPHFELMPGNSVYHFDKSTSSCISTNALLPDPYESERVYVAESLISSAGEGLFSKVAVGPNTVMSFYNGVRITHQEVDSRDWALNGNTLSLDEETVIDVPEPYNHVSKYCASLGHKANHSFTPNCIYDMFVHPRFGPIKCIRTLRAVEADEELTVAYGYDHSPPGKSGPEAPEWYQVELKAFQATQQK
Chain of UniProt P97678 (whole entry, looked up): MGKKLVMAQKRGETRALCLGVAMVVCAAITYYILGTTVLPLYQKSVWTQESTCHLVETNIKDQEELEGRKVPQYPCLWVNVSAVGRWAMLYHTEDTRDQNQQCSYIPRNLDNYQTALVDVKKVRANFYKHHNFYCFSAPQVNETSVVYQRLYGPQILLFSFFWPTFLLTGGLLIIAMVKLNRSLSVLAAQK

For `CCN(c1cc(-c2ccc(CN3CCOCC3)cc2)cc(C(=O)NCc2c(C)cc(C)[nH]c2=O)c1C)C1CCOCC1`, the inhibition was 4 ± 3% (SETD7 (Homo sapiens, UniProt Q8WTS6); enzyme activity, inhibitor; 1 µM).
`CC(O)C(C)n1ncn(-c2ccc(N3CCN(c4ccc(OCC5COC(Cn6cncn6)(c6ccc(Cl)cc6Cl)O5)cc4)CC3)cc2)c1=O` (centres unmarked) gave a Vmax of 0.13 pmol/min/pmol (Cytochrome P450 3A4 (CYP3A4, Homo sapiens, UniProt P08684); substrate).
`CCCCC/C=C\C[C@@H](O)/C=C/C=C/C=C\[C@@H](O)CCCC(=O)O` gave an EC50 of 1 nM (Calcium-activated potassium channel subunit beta-1, with BK alpha subunit (Kcnmb1, Rattus norvegicus, UniProt P97678); ion current, activator).
For `CCC(C)n1ncn(-c2ccc(N3CCN(c4ccc(OCC5COC(Cn6cncn6)(c6ccc(Cl)cc6Cl)O5)cc4)CC3)cc2)c1=O` (centres unmarked), the fraction absorbed was 1 (oral solution; fasted).
With `C[C@@H]1O[C@@H](OC[C@H]2O[C@@H](Oc3c(-c4ccc(O)c(O)c4)oc4cc(O)cc(O)c4c3=O)[C@H](O)[C@@H](O)[C@@H]2O)[C@H](O)[C@H](O)[C@H]1O` the dissolution was roughly 4% (acidic phosphate buffer).
For `C[C@@H]1CCO[C@H]2Cn3cc(C(=O)NCc4ccc(F)cc4F)c(=O)c(O)c3C(=O)N12`, the IC90 was 64 ng/mL (≈ 0.153 µM) (HIV; protein-binding adjusted).
`CC[C@H](C)C(=O)O[C@H]1C[C@@H](C)C=C2C=C[C@H](C)[C@H](CC[C@@H]3C[C@@H](O)CC(=O)O3)[C@H]21`: activity class “inactive” (Toxoplasma gondii; parasite growth; concentration not given, published screen).
`COc1ccc(-c2ccc3ncc4c(c3c2)n(-c2ccc(N3CCNCC3)c(C(F)(F)F)c2)c(=O)n4C)cn1` has an IC50 of 4 nM (PI3K alpha).

Some of these lines once more:
`CC[C@H](C)C(=O)O[C@H]1C[C@@H](C)C=C2C=C[C@H](C)[C@H](CC[C@@H]3C[C@@H](O)CC(=O)O3)[C@H]21`: activity class “inactive” (Toxoplasma gondii; parasite growth; concentration not given, published screen).
